Experimental data collected from several papers.
Parts stem from different laboratories: compare values within a part only.

Block 1
Target: PABPC1L2, full length, GST fusion (mouse, UniProt A0ABA7IW68)
Method: RNAcompete
Molecule type: RNA
Medium: in vitro
Tested at: 20 nM
Setting: 7-mer, probes averaged, single round
Reference: mean of 7-mers
Direction: higher = stronger binding
Construct (chain): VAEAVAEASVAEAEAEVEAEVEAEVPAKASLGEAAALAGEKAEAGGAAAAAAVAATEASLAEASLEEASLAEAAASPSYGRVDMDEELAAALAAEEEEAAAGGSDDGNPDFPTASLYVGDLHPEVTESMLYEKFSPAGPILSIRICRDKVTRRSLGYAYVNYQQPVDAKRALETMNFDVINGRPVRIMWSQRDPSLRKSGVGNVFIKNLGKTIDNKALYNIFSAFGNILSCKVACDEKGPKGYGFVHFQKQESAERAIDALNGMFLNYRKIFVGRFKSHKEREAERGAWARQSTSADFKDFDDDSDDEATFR
Strand | 7-mer Z-score
AUGCUCC | -0.231
GUAUAUA | -0.00833
CAUCAGU | -0.197
UGUUACG | -0.329
GACGAUU | -0.11
GCGGUCA | 0.0859
CAAAUGG | 0.196
UGAUGCA | -0.0935

Block 2
Target: Phosphate system positive regulatory protein PHO4, full length, GST-tagged (PHO4, Saccharomyces cerevisiae, UniProt P07270, residues 1-312)
Method: competition protein-binding microarray
Molecule type: double-stranded DNA, one strand shown
Medium: in vitro
Tested at: 2 µM
Setting: whole 60-bp probe, lowest competitor level
With: Cbf1 competitor, 0.05 µM
Direction: higher = stronger binding
Shared flanks, not repeated: … GTCTTGATTCGCTTGACGCTGCTG
Residues (chain): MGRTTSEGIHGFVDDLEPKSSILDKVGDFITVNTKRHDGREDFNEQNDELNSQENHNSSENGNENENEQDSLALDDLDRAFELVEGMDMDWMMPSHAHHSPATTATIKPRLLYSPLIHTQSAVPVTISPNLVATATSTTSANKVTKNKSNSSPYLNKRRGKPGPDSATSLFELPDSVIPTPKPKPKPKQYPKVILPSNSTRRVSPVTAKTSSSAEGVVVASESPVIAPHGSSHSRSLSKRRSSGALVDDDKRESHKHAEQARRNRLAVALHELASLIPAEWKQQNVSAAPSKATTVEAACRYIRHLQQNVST
Strand | fluorescence intensity
CTTTCCCGATCTTTTCACGTGTCTTTAGCACATTTG | 13600 a.u.
ACAAAATCGGCTTTTTACGTGACGGAAGAAGGTTAA | 3710 a.u.
GTCTTGTCTCATTGCTCTGTGGGTGTCCCCACTTCA | 4640 a.u.
TCAAGAAGCAGTTTTATCGTGATGGGTTTCAAATCG | 3580 a.u.
ACCGCAGCACCGTTTCACATGTCCGTCTCTTTTGTT | 6900 a.u.
AAATCTGATTCTCACCACGTGCAAAAAAGATTGTAC | 17000 a.u.
CGTCCTAGTGATTGCCGCGTGGGTGCCATGAGGAAG | 10800 a.u.
GCTTGGCATCCGTCCCACGTTATGTGGAGTGTTGCC | 9040 a.u.

Single results of other studies
Compound | test system | conditions | endpoint | result
O=C1CCC(N2Cc3cc(C4CCN(Cc5ccccc5)CC4)ccc3C2=O)C(=O)N1 (stereo not drawn) | male CD-1 mouse, plasma | intravenous, 1 mg/kg | Vd | 9.43 L/kg
CC(C)n1cnc(-c2ccc(F)cc2)c1-c1ncc(C(=O)Nc2ccc(N3CCN(C)CC3)cc2)[nH]1 | IPF patients | 30 mg once daily, adverse event incidence | blood glucose increased | 0%

Repeated from above (block 1):
Strand | 7-mer Z-score
GACGAUU | -0.11
GCGGUCA | 0.0859
